# Assay results collected from several papers.
# Values joined by “and” are separate records of one study, mostly repeats; a detail may differ. ± gives the spread as reported.
Compound,assay,test system,conditions,half-life
NC(=O)c1cc(N2CC2)c([N+](=O)[O-])cc1[N+](=O)[O-],substrate depletion,phenobarbital/β-naphthoflavone-induced rat liver microsomes,"1 µM, pH 7.4, 37 °C, added: NADPH",1.88 h
O=S(=O)(F)Oc1cc(C(F)(F)F)cc(C(F)(F)F)c1,"reactivity with N-α-acetyl-lysine, HPLC-MS",BBS buffer with acetonitrile,"1 mM, pH 10.2",0.6 h
CN[C@H](CC(C)C)C(=O)N[C@H]1C(=O)N[C@@H](CC(N)=O)C(=O)N[C@H]2C(=O)N[C@H]3C(=O)N[C@H](C(=O)N[C@H](C(=O)O)c4cc(O)cc(O)c4-c4cc3ccc4O)[C@H](O)c3ccc(c(Cl)c3)Oc3cc2cc(c3O[C@@H]2O[C@H](CO)[C@@H](O)[C@H](O)[C@H]2O[C@H]2C[C@](C)(N)[C@H](O)[C@H](C)O2)Oc2ccc(cc2Cl)[C@H]1O,,"rabbit, serum",,~2 h
CCN1CC2(CCN(CCc3cc(F)ccc3F)CC2)O[C@H](C)C1=O,,"ferret, plasma","intraperitoneal, 0.5 mg/kg",4.3 ± 0.2 h
CC(=O)OC/C(C)=C/CCP(=O)(OCOC(=O)C1CCOCC1)Oc1ccc(C(C)C)cc1 (stereo not shown),,50% CD1 mouse plasma,"100 µM, pH 7.5, 37 °C",0.00617 h
N#Cc1ccncc1,,PBS with 5% acetonitrile,"250 µM, pH 7.4, no glutathione",146 h
C/C(=C\CCP(=O)(OCOC(=O)CC1CCCCC1)Oc1ccc(C(C)C)cc1)CO (stereo not shown),,50% CD1 mouse plasma,"100 µM, pH 7.5, 37 °C",0.0517 h
CC(C)C(=O)OC[C@H]1O[C@@H](n2ccc(NO)nc2=O)[C@H](O)[C@@H]1O,,human plasma,"2 µM, 37 °C",3.12 h
C/C(=C\CCP(=O)(OCOC(=O)C1CCOCC1)Oc1ccc(C(C)C)cc1)CO (stereo not shown),,50% CD1 mouse plasma,"100 µM, pH 7.5, 37 °C",0.0075 h
CC[C@H](C)[C@H](NC(=O)[C@H]1CCC[C@@H]1NC(=O)[C@H](CC(=O)O)NC(=O)[C@H](CC(C)C)NC(=O)[C@H](CCCCN)NC(=O)[C@H]1CCC[C@@H]1NC(=O)[C@H](CC(N)=O)NC(=O)[C@H](CO)NC(=O)[C@H]1CNC[C@@H]1NC(=O)[C@H](CCCNC(=N)N)NC(=O)[C@@H](NC(=O)[C@H](Cc1c[nH]c2ccccc12)NC(=O)C[C@H](CCC(=O)O)NC(=O)[C@H](CCCCN)NC(=O)[C@H](CO)NC(=O)C[C@H](CCC(=O)O)NC(=O)[C@H](CCC(=O)O)NC(=O)[C@H](CC(C)C)NC(=O)[C@H](CC(=O)O)NC(=O)[C@H]1CCC[C@@H]1NC(=O)[C@H](CCCCN)NC(=O)[C@@H](NC(=O)[C@H]1CNC[C@@H]1NC(=O)[C@H](CC(N)=O)NC(=O)[C@H](CC(C)C)NC(=O)[C@@H](NC(=O)[C@H]1CCC[C@@H]1NC(=O)[C@H](CO)NC(=O)[C@@H](NC(=O)[C@H](CC(=O)O)NC(=O)[C@@H](NC(=O)[C@@H]1CCCN1C(=O)[C@H](CC(=O)O)NC(=O)[C@H](CC(C)C)NC(=O)[C@H](C)NC(=O)[C@@H](NC(C)=O)C(C)C)[C@@H](C)CC)[C@@H](C)CC)C(C)C)[C@@H](C)CC)[C@@H](C)CC)C(N)=O,UPLC,Tris-buffered saline,"pH 7.6, 23 °C, added: proteinase K 8 µg/mL",0.0711 h
[Cl][Ru-]([Cl])([Cl])[Cl].[Na+].c1ccc2[nH]ncc2c1.c1ccc2[nH]ncc2c1,"ICP-MS, measured: total ruthenium","advanced solid tumour patients, plasma","iv infusion, 40 mg/m2, cycle 1 cohort mean",154 h
CC[C@H](C)[C@H](NC(=O)[C@@H](NC(=O)[C@H](N)Cc1ccccc1)C(C)C)C(=O)N[C@@H](C)C(N)=O,,fetal bovine serum,"pH 7.4, 37 °C",13.2 h
CCCCc1ccc(NC(=O)C2=CCN(C)[C@@H]([C@H](O[C@@H]3O[C@H](CN)[C@@H](O)[C@H]3O)[C@H]3O[C@@H](n4ccc(=O)[nH]c4=O)[C@H](O)[C@@H]3O)C(=O)N2C)cc1,,"guinea pig, serum","insufflation, dose not given, dry powder combination single dose",1.06 h
N#Cc1cccnc1,,PBS with 5% acetonitrile,"250 µM, pH 7.4, no glutathione",974 h
CC(C)C[C@@H](NC(=O)[C@H](Cc1ccccc1)NC(=O)CNC(=O)[C@@H](C)NC(=O)[C@H](Cc1ccc(O)cc1)NC(=O)[C@@H]1CCCN1C(=O)[C@@H]1CCCN1C(=O)c1ccc[n+](C)c1)C(=O)O,HPLC-UV,rat cerebellum homogenate,"100 µM, 37 °C",0.15 h
CC[C@H](C)[C@H](NC(=O)[C@H](Cc1ccccc1)NC(=O)[C@H](CC(=O)O)NC(=O)[C@H](CCCNC(=N)N)NC(=O)[C@H](Cc1ccccc1)NC(=O)[C@H](Cc1ccccc1)NC(=O)[C@H](CCCCN)NC(=O)[C@H](CO)NC(=O)[C@H](CC(C)C)NC(=O)[C@H](CCCNC(=N)N)NC(=O)[C@H](CCSC)NC(=O)[C@@H](N)CCC(=O)O)C(=O)N[C@@H](CC(C)C)C(=O)N[C@@H](CCC(N)=O)C(=O)N[C@@H](CCCNC(=N)N)C(=O)N[C@@H](CCCCN)C(=O)N[C@@H](CCCCN)C(=O)O,,trypsin/chymotrypsin in ammonium carbonate,"0.066 mM, pH 8.0, 37 °C, added: trypsin/chymotrypsin 0.05 µg/mL",1.5 h
C/C=C1/CN2CC[C@@]34c5cc(O)ccc5N(C)[C@]35OC[C@@]4(C(=O)OC)[C@H]1C[C@H]25,,"rat liver microsomes, male","1 µM, pH 7.4, protein 1 mg/mL, added: NADPH 1 mM",0.225 ± 0.015 h
CCCCCn1nc(C(=O)Nc2cccc3ccccc23)c2ccccc21,,male human liver microsomes,"1 µM, pH 7.4, 37 °C",0.0285 h
CC[C@H](C)[C@@H]1NC(=O)[C@H](Cc2ccc(O)cc2)NC(=O)[C@@H](N)CSSC[C@@H](C(=O)N2CCC[C@H]2C(=O)N[C@@H](CC(C)C)C(=O)NCC(N)=O)NC(=O)[C@H](CC(N)=O)NC(=O)[C@H](CCC(N)=O)NC1=O,,phosphate buffer,"0.1 mg/mL, pH 2.0, 40 °C",324 h
Cc1cc(C)nc(Nc2ncc(C(=O)NCCc3c(C)[nH]c4ccccc34)cn2)c1,,simulated gastric fluid,"10 µM, pH 1.2, 37 °C",> 6.67 h
C[C@]12CC[C@H]3[C@@H](CCC4=CC(=O)CC[C@@]43C)[C@@H]1CC[C@@H]2O,,mouse liver microsomes,,0.0733 h
CC(=O)OC/C(C)=C/CCP(=O)(OCOC(=O)c1ccccc1)Oc1ccc(C(C)C)cc1 (stereo not shown),,50% CD1 mouse plasma,"100 µM, pH 7.5, 37 °C",0.0142 h
C[C@@H]1N=C(c2ccccc2F)c2cc(Br)ccc2-n2cnc(C(=O)O)c21,,mouse liver S9 fraction,"10 µM, glucuronidation",7.25 h
Cc1ncc2n1-c1ccc(Cl)cc1C(c1ccccc1F)=NC2,,"healthy volunteers, plasma","oral, 5 mg single dose, day 1, given alone",5.95 h
CC(C)C[C@@H](NC(=O)[C@H](Cc1ccccc1)NC(=O)CNC(=O)[C@@H](C)NC(=O)[C@H](Cc1ccc(O)cc1)NC(=O)[C@@H]1CCCN1C(=O)c1ccc[n+](C)c1)C(=O)O,HPLC-UV,20% rat brain homogenate,pH 7.4,5.77 h
CC(C)CC(=O)OC[C@H]1O[C@@](C#N)(c2ccc3c(N)ncnn23)[C@H](O)[C@@H]1O,,mouse whole blood,5 µM,0.00552 h
Cn1ncc(-c2nc(N[C@H]3CC[C@H](N)CC3)ncc2Cl)c1CC1CC1,HPLC-MS/MS,"patients, plasma","oral, 3 mg, day 5",24.8 h
CCCCCCCCCCCCCCCC(=O)ONc1ccn([C@@H]2O[C@H](CO)[C@@H](O)[C@H]2O)c(=O)n1,,human plasma,"2 µM, 37 °C",2.85 h
C[C@]1(CO)Cc2ncn(-c3ccc(C#N)c(Cl)c3)c2C(=O)O1,,"healthy Japanese adults, plasma","80 mg once daily, after first dose, multiple dose",5.8 h
O=C/C=C/c1ccccc1,phase II metabolic stability,human liver S9 fraction,"10 µM, pH 7.4, added: UDPGA",0.0328 ± 0.00117 h
CC(=O)OC/C(C)=C/CCP(=O)(OCOC(=O)CC1CCOCC1)Oc1cccc2ccccc12 (stereo not shown),,50% CD1 mouse plasma,"100 µM, pH 7.5, 37 °C",0.02 h
CC(C)[N+](C)(CCOC(=O)C1c2ccccc2Oc2ccccc21)C(C)C,,human plasma,plasma stability,0.248 ± 0.0267 h
CCC(CNc1nc(-c2cn3ccnc3cc2C)nc2ccccc12)c1ccccc1 (stereo not shown),,mouse liver microsomes,,0.115 h and 0.117 h
CC(C)C[C@@H](NC(=O)[C@H](Cc1ccccc1)NC(=O)CNC(=O)[C@@H](C)NC(=O)[C@H](Cc1ccc(O)cc1)NC(=O)[C@H](C)NC(=O)[C@@H]1CCCN1C(=O)c1ccc[n+](C)c1)C(=O)O,HPLC-UV,20% rat brain homogenate,pH 7.4,0.4 h

# Excerpt of the above:
Compound,assay,test system,conditions,half-life
C/C=C1/CN2CC[C@@]34c5cc(O)ccc5N(C)[C@]35OC[C@@]4(C(=O)OC)[C@H]1C[C@H]25,,"rat liver microsomes, male","1 µM, pH 7.4, protein 1 mg/mL, added: NADPH 1 mM",0.225 ± 0.015 h
CC(C)C[C@@H](NC(=O)[C@H](Cc1ccccc1)NC(=O)CNC(=O)[C@@H](C)NC(=O)[C@H](Cc1ccc(O)cc1)NC(=O)[C@@H]1CCCN1C(=O)[C@@H]1CCCN1C(=O)c1ccc[n+](C)c1)C(=O)O,HPLC-UV,rat cerebellum homogenate,"100 µM, 37 °C",0.15 h
CC[C@H](C)[C@H](NC(=O)[C@H]1CCC[C@@H]1NC(=O)[C@H](CC(=O)O)NC(=O)[C@H](CC(C)C)NC(=O)[C@H](CCCCN)NC(=O)[C@H]1CCC[C@@H]1NC(=O)[C@H](CC(N)=O)NC(=O)[C@H](CO)NC(=O)[C@H]1CNC[C@@H]1NC(=O)[C@H](CCCNC(=N)N)NC(=O)[C@@H](NC(=O)[C@H](Cc1c[nH]c2ccccc12)NC(=O)C[C@H](CCC(=O)O)NC(=O)[C@H](CCCCN)NC(=O)[C@H](CO)NC(=O)C[C@H](CCC(=O)O)NC(=O)[C@H](CCC(=O)O)NC(=O)[C@H](CC(C)C)NC(=O)[C@H](CC(=O)O)NC(=O)[C@H]1CCC[C@@H]1NC(=O)[C@H](CCCCN)NC(=O)[C@@H](NC(=O)[C@H]1CNC[C@@H]1NC(=O)[C@H](CC(N)=O)NC(=O)[C@H](CC(C)C)NC(=O)[C@@H](NC(=O)[C@H]1CCC[C@@H]1NC(=O)[C@H](CO)NC(=O)[C@@H](NC(=O)[C@H](CC(=O)O)NC(=O)[C@@H](NC(=O)[C@@H]1CCCN1C(=O)[C@H](CC(=O)O)NC(=O)[C@H](CC(C)C)NC(=O)[C@H](C)NC(=O)[C@@H](NC(C)=O)C(C)C)[C@@H](C)CC)[C@@H](C)CC)C(C)C)[C@@H](C)CC)[C@@H](C)CC)C(N)=O,UPLC,Tris-buffered saline,"pH 7.6, 23 °C, added: proteinase K 8 µg/mL",0.0711 h
C[C@]12CC[C@H]3[C@@H](CCC4=CC(=O)CC[C@@]43C)[C@@H]1CC[C@@H]2O,,mouse liver microsomes,,0.0733 h
